Values quoted from earlier work, collected from citations in different studies.
Protocols differ between the studies behind these lines.
B1: CCL1; sequence looked up; chain KSMQVPFSRCCFSFAEQEIPLRAILCYRNTSSICSNEGLIFKLKRGKEACALDTVGWVQRHRKMLRHCPSKRK

For `RQIKIWFQNKKWKWKK`, the MIC was 1000 µg/mL (Staphylococcus aureus; peptide, methicillin-resistant).
`teicoplanin` has an unbound fraction of 5 to 10% (plasma).
Under “ILD or pneumonitis, all grades”, `ifinatamab deruxtecan` is recorded as 2.9% (patients with advanced solid tumours; dose not given).
The AUC(0-inf) of `pegcetacoplan` is reported as 3190 µg·h/mL (human; 45 mg single dose, arithmetic mean).
`insulin icodec` — result for “dose-normalised Cmax at steady state”: 99.3 (nmol/L)/(U/kg) (White patients with type 1 diabetes, serum; geometric mean).
For `DRDRPECSTMVKYEQKLPSLGKYALKRAIKIKFGRK`, the MIC was 5 µM (Pseudomonas aeruginosa; peptide, ATCC 15692).
`dulaglutide` has a clearance of 0.073 L/h (human; 0.75 mg once weekly, steady state).
Under “patients with rash”, `amivantamab` is recorded as 86% (clinical trial; human, NSCLC patients; dose not given).
For `insulin degludec`, the half-life was 25.4 h.
`B1 (CCL1)` has an EC50 of 8.2 nM (CCR8 V109A mutant; IP accumulation, agonist).
The half-life of `Liraglutide` is reported as 15 h (circulation).
For `semaglutide`, the nausea incidence was 44% (obese humans without diabetes; 2.4 mg, titrated over 16 weeks).
The t1/2 of `albiglutide` is reported as 144 to 192 h (human; once weekly dosing).

Some of these lines once more:
The AUC(0-inf) of `pegcetacoplan` is reported as 3190 µg·h/mL (human; 45 mg single dose, arithmetic mean).
